Experimental data pooled from the literature.
Compare with care: the assays were run in different laboratories. “And” joins repeats or separate records; there may be more than shown.
T1: itself; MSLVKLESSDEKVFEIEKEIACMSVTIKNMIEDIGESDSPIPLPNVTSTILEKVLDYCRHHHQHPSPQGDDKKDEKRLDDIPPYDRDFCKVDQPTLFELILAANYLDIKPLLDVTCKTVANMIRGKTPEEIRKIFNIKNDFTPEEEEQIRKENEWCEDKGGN
B1: Skp1 (Dictyostelium discoideum, UniProt P52285); pentasaccharide on hydroxyproline 143; chain MSLVKLESSDEKVFEIEKEIACMSVTIKNMIEDIGESDSPIPLPNVTSTILEKVLDYCRHHHQHPSPQGDDKKDEKRLDDIPPYDRDFCKVDQPTLFELILAANYLDIKPLLDVTCKTVANMIRGKTPEEIRKIFNIKNDFTPEEEEQIRKENEWCEDKGGN
B2: LAG3 extracellular domain 23-450 (Homo sapiens, UniProt P18627); chain LQPGAEVPVVWAQEGAPAQLPCSPTIPLQDLSLLRRAGVTWQHQPDSGPPAAAPGHPLAPGPHPAAPSSWGPRPRRYTVLSVGPGGLRSGRLPLQPRVQLDERGRQRGDFSLWLRPARRADAGEYRAAVHLRDRALSCRLRLRLGQASMTASPPGSLRASDWVILNCSFSRPDRPASVHWFRNRGQGRVPVRESPHHHLAESFLFLPQVSPMDSGPWGCILTYRDGFNVSIMYNLTVLGLEPPTPLTVYAGAGSRVGLPCRLPAGVGTRSFLTAKWTPPGGGPDLLVTGDNGDFTLRLEDVSQAQAGTYTCHIHLQEQQLNATVTLAIITVTPKSFGSPGSLGKLLCEVTPVSGQERFVWSSLDTPSQRSFSGPWLEAQEAQLLSQPWQCQLYQGERLLGAAVYFTELSSPGAQRSGRAPGALPAGHL
Sequence of UniProt P0AE98 (whole entry, looked up): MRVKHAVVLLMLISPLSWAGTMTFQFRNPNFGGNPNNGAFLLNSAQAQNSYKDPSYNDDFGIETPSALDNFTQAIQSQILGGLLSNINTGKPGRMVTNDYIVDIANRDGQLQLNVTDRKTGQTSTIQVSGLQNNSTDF

Substance	partner	assay	test system	setting	subunits per oligomer
gp7 virion capsid	itself	cryo-EM	–	–	6
csgF mature (Escherichia coli, UniProt P0AE98)	itself	cryo-EM	–	–	9
nsaS fragment (Staphylococcus aureus)	itself	AUC	–	–	2
HBV core protein Cp149 assembly domain, dimer (hepatitis B virus)	itself	native MS	–	pH 7.5	120 dimers
ITPR1 C2505A/C2513A (Homo sapiens)	itself	sucrose density gradient fractionation	lysate	–	4
HBV core protein Cp149 dimer (hepatitis B virus)	itself	resistive-pulse sensing	–	–	114 dimers and 104 dimers and 117 dimers
B1 (Skp1)	T1, itself	SAXS	–	Mr from scattering	2
ITPR1 C2542A (Homo sapiens)	itself	sucrose density gradient fractionation	lysate	–	2
LL-37 mature (Homo sapiens)	itself	native MS	–	–	3 and 4
TNC 100-kD chymotryptic fragment, interchain disulfide-linked oligomers (Gallus gallus)	itself	sedimentation velocity	–	–	6
ACE2/IGHM/JCHAIN ACE2 , monomer (Homo sapiens)	itself	SEC-MALS	–	–	10
carG (Serratia sp. ATCC 39006)	itself	SEC	–	–	2
fiber knob knob domain (adenovirus serotype 5)	itself	native gel	–	–	3
ASCT residues 10-end (Trypanosoma brucei)	itself	native gel or EMSA	–	–	4
opuCA CBS domains (Staphylococcus aureus)	itself	SEC-MALS	–	pH 7.5, NaCl 200 mM	2
B2	itself	SEC-MALS	–	–	2

Excerpt of the above:
Substance	partner	assay	test system	setting	subunits per oligomer
LL-37 mature (Homo sapiens)	itself	native MS	–	–	3 and 4
